# Measured values gathered from unrelated publications.
# Lines come from different studies, so protocols differ. Several values in a cell are separate wells, animals, samples, runs or records. ± marks the error that the study gave.
Structure (SMILES),target or system,test,system,conditions,scale,measurement,result
COC(=O)[C@H]1[C@@H](c2ccc(Cl)c(Cl)c2)C[C@@H]2CC[C@H]1N2Cc1c2ccccc2c(Cl)c2ccccc12,,fluorometric titration,,"1 µM, 10% DMSO",,pKa,3.7
CC(CCC(=O)NCC(=O)O)C1CCC2C3C(O)CC4CC(OC5OC(C(=O)O)C(O)C(O)C5O)CCC4(C)C3CCC12C (stereo not shown),,,human women,"dose not given, SLCO1B1 *14/*35",,plasma concentration,6.28 ng/mL
CC[C@H](C)[C@H](NC(=O)[C@H](CCCCN)NC(=O)CNC(=O)[C@H](CC(C)C)NC(=O)[C@H](Cc1ccccc1)NC(=O)[C@H](CCCCN)NC(=O)[C@H](CO)NC(=O)[C@H](Cc1ccccc1)NC(=O)[C@H](Cc1c[nH]c2ccccc12)NC(=O)[C@H](CCC(N)=O)NC(=O)[C@@H](NC(=O)[C@H](Cc1ccccc1)NC(=O)CCCCCNC(=O)CN1CCN(CC(=O)O)CCN(CC(=O)O)CCN(CC(=O)O)CC1)C(C)C)C(=O)N[C@@H](CCC(=O)O)C(=O)N1CCC[C@H]1C(=O)N[C@@H](CC(=O)O)C(=O)N[C@H](C(=O)N[C@@H](CO)C(=O)N[C@@H](CCC(N)=O)C(=O)N[C@H](C(=O)N[C@@H](CCC(N)=O)C(=O)N[C@@H](CC(=O)O)C(=O)N1CCC[C@H]1C(=O)N[C@@H](CC(N)=O)C(=O)N[C@@H](CC(=O)O)C(=O)N[C@@H](CCC(N)=O)C(=O)N[C@@H](Cc1ccc(O)cc1)C(=O)N[C@@H](CCC(=O)O)C(=O)N1CCC[C@H]1C(=O)N[C@@H](Cc1ccccc1)C(=O)O)C(C)C)C(C)C [copper-64 labelled],,,"BALB/c mice, male, CT26 tumour-bearing, large intestine","2 h, vehicle-treated",,tissue uptake,4.48 ± 1.4 %ID/g
CC(C)C[C@H](NC(=O)[C@H](Cc1ccc(O)cc1)NC(=O)[C@H](Cc1c[nH]cn1)NC(=O)[C@H](CC(=O)O)NC(=O)[C@H](CC(C)C)NC(=O)[C@H](C)NC(=O)[C@H](CC(C)C)NC(=O)CNC(=O)CNC(=O)[C@@H](NC(=O)[C@@H](NC(=O)[C@H](CCCCN)NC(=O)CNC(=O)[C@@H](NC(=O)[C@H](CCCCN)NC(=O)[C@H](CCCCN)NC(=O)[C@H](C)NC(=O)[C@H](CCCCN)NC(=O)[C@H](CCCNC(=N)N)NC(=O)[C@H](Cc1ccccc1)NC(=O)[C@@H](NC(=O)[C@H](CO)NC(=O)[C@H](CCCCN)NC(=O)[C@H](Cc1c[nH]c2ccccc12)NC(=O)CN)C(C)C)C(C)C)[C@@H](C)O)C(C)C)C(N)=O,,,"zebrafish embryos 4 hpf, E3 medium",24 h,,chronic toxic concentration,5 µM
COc1cnc2cccc(N3CCc4c(cc(Cn5ccnc5)cc4-c4cn(C)nc4C(F)(F)F)C3=O)c2c1,,,CD-1 mouse,"intraperitoneal, 150 mg/kg once daily, day 4, dose-escalation tolerability",reference: day 1,body weight change,6.9%
CC(C)[C@H]1NC(=O)C[C@H]2/C=C/CCSSC[C@@H](NC1=O)C(=O)N[C@H](Cc1cccc3ccccc13)C(=O)NCC(=O)O2,"EGFR (Homo sapiens, UniProt P00533, L858R)","enzyme activity, inhibitor",,10 µM,,inhibition,-3.5%
Cc1nc2cccc(OCC(C)(C)C(=O)NC(C)C)c2c(N)c1C(=O)[O-].[Na+],Escherichia coli,Ames plate incorporation,WP2 uvrA,"0.32 mg/plate, together with: with rat liver S9",,revertant colonies,39 ± 5 colonies/plate
CC1COCCN1c1nc(NCc2cccnc2C(F)(F)F)c2cccnc2n1 (stereo not shown),,,Sprague Dawley rat,"oral, 300 mg/kg once daily, 7 days",,toxicological findings,no effect
N=C(N)NCCC[C@H](NC(=O)[C@H](CCCNC(=N)N)NC(=O)[C@H](CCCNC(=N)N)NC(=O)[C@H](CCC(N)=O)NC(=O)[C@H](CCCNC(=N)N)NC(=O)[C@H](CCCNC(=N)N)NC(=O)[C@H](CCCCN)NC(=O)[C@H](CCCCN)NC(=O)[C@H](CCCNC(=N)N)NC(=O)CNC(=O)[C@H](Cc1ccc(O)cc1)NC(=O)[C@H](Cc1ccccc1)NC(=O)[C@H](Cc1ccccc1)NC(=O)[C@H](Cc1ccccc1)NC(=O)OCC1c2ccccc2-c2ccccc21)C(=O)O,,,C57BL/6 mice,"intraperitoneal, 5 mg/kg, 2 h",direction not given,health score,5
CCCCCCCCCCCCCCCC(=O)N[C@@H](CCC(=O)NCCOCCOCCC(=O)NCCOCCOCCC(=O)NCCCC[C@H](NC(=O)[C@H](CC(=O)O)NC(=O)[C@H](CC(C)C)NC(=O)[C@H](Cc1ccc(O)cc1)NC(=O)[C@H](CCCCN)NC(=O)[C@H](CO)NC(=O)[C@H](Cc1ccc(O)cc1)NC(=O)[C@H](CC(=O)O)NC(=O)[C@H](CO)NC(=O)[C@@H](NC(=O)[C@H](Cc1ccccc1)NC(=O)[C@@H](NC(=O)CNC(=O)[C@H](CCC(N)=O)NC(=O)[C@@H](CO)NC(=O)[C@@H](N)Cc1c[nH]cn1)[C@@H](C)O)[C@@H](C)O)C(=O)N[C@@H](CCCNC(=N)N)C(=O)N[C@@H](CCCNC(=N)N)C(=O)N[C@@H](C)C(=O)N[C@@H](CCC(N)=O)C(=O)N[C@@H](CC(=O)O)C(=O)N[C@@H](Cc1ccccc1)C(=O)N[C@H](C(=O)N[C@@H](CCC(N)=O)C(=O)N[C@@H](Cc1c[nH]c2ccccc12)C(=O)N[C@@H](CC(C)C)C(=O)N[C@@H](CC(C)C)C(=O)N[C@@H](CC(N)=O)C(=O)N[C@H](C(=O)NCC(=O)NCC(=O)N1CCC[C@H]1C(=O)N[C@@H](CO)C(=O)N[C@@H](CO)C(=O)NCC(=O)N[C@@H](C)C(=O)N1CCC[C@H]1C(=O)N1CCC[C@H]1C(=O)N1CCC[C@H]1C(=O)N[C@@H](CO)C(N)=O)[C@@H](C)O)C(C)C)C(=O)O,,,"Sprague-Dawley rat, female","subcutaneous, 20 µg/kg once daily, 14 days",,total bilirubin,0.9 ± 0.5 µmol/L
NC1CCN(C(=O)Oc2ccc(C3CCCC4(C3)OOC3(O4)C4CC5CC(C4)CC3C5)cc2)CC1 (racemic),,,"male ICR mice, plasma","oral, 50 mg/kg",,AUC(0-inf),6920 ng·h/mL
O=C(O)CCCOc1ccc(O)cc1-c1cc(-c2ccccc2C(F)(F)F)n(-c2ccccc2)n1,Salmonella typhimurium,Ames test,TA98,"concentration not given, with S9 metabolic activation",,growth-inhibiting concentration,5000 µg/plate
COc1ccccc1-c1n[nH]c2nc(NC3CCN(C(=O)Cc4ccc(F)cc4F)CC3)ncc12,,"bead binding, competition bead pull-down, refers to: LINJ.05.0100",Leishmania donovani axenic amastigote extract,10 µM,reference: vehicle,relative abundance,1.13
O=C1NC2(CC2)COc2ncc(F)cc2[C@H]2COCCN2c2ccn3ncc1c3n2,,,"Sprague-Dawley rat, male, kidneys","oral, 10 mg/kg/day, 4 weeks dosing, end of recovery",,organ-to-brain weight ratio,164 ± 17.6%
N#[11C]c1ccc(-c2csc(NN=C3CCCC3)n2)cc1,,,"C57BL/6 mouse, male","intravenous, 3 MBq, 30 min",,uptake in blood,3.27 ± 0.47 %ID/g
Cc1cc(-c2ccc3ccccc3c2)nnc1NCCN1CCN(C)CC1,"Cytochrome P450 2B6 (CYP2B6, Homo sapiens, UniProt P20813)",substrate,recombinant enzyme,100 nM,,half-life,> 1 h
CSCC[C@H](NC(=O)[C@@H](NC(=O)[C@H](CC(C)C)NC(=O)[C@@H](NC(=O)[C@H](Cc1c[nH]cn1)NC(=O)CCCCCNC(=O)[C@H](CCCNC(=N)N)NC(=O)[C@H](CCCNC(=N)N)NC(=O)[C@H](CCCNC(=N)N)NC(=O)[C@H](CCC(N)=O)NC(=O)[C@H](CCCNC(=N)N)NC(=O)[C@H](CCCNC(=N)N)NC(=O)[C@H](CCCCN)NC(=O)[C@H](CCCCN)NC(=O)[C@H](CCCNC(=N)N)NC(=O)CNC(=O)[C@@H](N)Cc1ccc(O)cc1)C(C)C)C(C)C)C(=O)N[C@@H](CS)C(=O)N[C@@H](C)C(=O)N[C@H](C(N)=O)[C@@H](C)O,,,C57BL/6J mice,"Alzet osmotic pump, 3 mg/kg, 8 weeks",reference: leukocytes,Mono,7% and 1%
CCN(CC)CCOc1ccc(-c2nnn(Cc3ccc(OC)cc3)c2N)cc1,,,human hepatocytes,"concentration not given, time not given",,remaining compound,68.7%
CS(C)(=O)=Nc1ccc(-c2ccc(-c3nc4cc(O[C@@H]5CO[C@H]6[C@@H]5OC[C@H]6O)[nH]c4cc3F)cc2)cc1,"MET (Homo sapiens, UniProt P08581)","enzyme activity, inhibitor",,10 µM,,inhibition,-6%
CC[C@H](C)[C@H](N)C(=O)N[C@@H](CCCNC(=N)N)C(=O)N[C@H](C(=O)N[C@@H](Cc1c[nH]c2ccccc12)C(=O)N[C@@H](Cc1ccccc1)C(=O)N[C@H](C(=O)N[C@@H](CCCCN)C(=O)N[C@H](C(=O)N[C@@H](CCCNC(=N)N)C(=O)N[C@@H](CCCCN)C(=O)N[C@@H](CCSC)C(=O)N[C@@H](CCCCN)C(=O)N[C@@H](C)C(=O)N[C@H](C(=O)N[C@@H](Cc1ccc(O)cc1)C(=O)N[C@@H](Cc1c[nH]cn1)C(=O)N[C@H](C(N)=O)[C@@H](C)O)[C@@H](C)CC)C(C)C)[C@@H](C)CC)C(C)C,,reversed-phase UPLC,"C18 column, TFA",,,elution acetonitrile content,43.5%
[2H]C([2H])([18F])[C@]([2H])(N)C(=O)O,,PET,athymic nude mouse,15 min,,maximum muscle uptake,1.59 ± 0.47 %ID/cc
CC(C)C[C@H](NC(=O)[C@@H](N)CO)C(=O)N[C@@H](Cc1c[nH]c2ccccc12)C(=O)N[C@@H](CCC(=O)O)C(=O)N[C@@H](CC(N)=O)C(=O)N[C@@H](Cc1ccccc1)C(=O)N[C@@H](CCCCN)C(=O)N[C@@H](CC(N)=O)C(=O)N[C@@H](C)C(=O)NCC(=O)N[C@@H](CCCCN)C(N)=O,,,horse erythrocytes,"2 h, 37 °C",reference: Triton X-100,HC50,> 128 µM
O=C1NC(=O)c2c1c1cc(F)c[n+]3c1c1c2c2cc(O)ccc2[n]1[Ru-4]312([N]=C=S)[S+]3CC[S+]1CC[S+]2CC3 (stereo not shown),"ABL1 (Homo sapiens, UniProt P00519)",enzyme activity,,"100 nM, human enzyme, together with: 10 µM ATP",reference: untreated,remaining activity,96%
CN(C)[C@H]1C[C@@]23CC[C@@]4(O2)C(=CC[C@]2(C)[C@@H](c5ccc6ccncc6c5)CC[C@H]24)C=C3[C@@H](O)[C@@H]1O,"MAP2K2 (Homo sapiens, UniProt P36507)","ATP probe labelling, inhibitor, KiNativ profiling",,0.1 µM,,inhibition,-2.9%
Cn1nc(NS(C)(=O)=O)c2c(Cl)ccc(-n3c([C@H](Cc4cc(F)cc(F)c4)NC(=O)Cn4nc(C(F)F)c5c4C(F)(F)[C@@H]4C[C@H]54)nc4nc(OCCC(F)(F)F)ccc4c3=O)c21,,,"human, plasma","oral, 1875 mg single dose, powder in bottle, geometric mean",,AUC(0-inf),36300 ng·h/mL

# For quick reference, copied from above:
Structure (SMILES),target or system,test,system,conditions,scale,measurement,result
CCCCCCCCCCCCCCCC(=O)N[C@@H](CCC(=O)NCCOCCOCCC(=O)NCCOCCOCCC(=O)NCCCC[C@H](NC(=O)[C@H](CC(=O)O)NC(=O)[C@H](CC(C)C)NC(=O)[C@H](Cc1ccc(O)cc1)NC(=O)[C@H](CCCCN)NC(=O)[C@H](CO)NC(=O)[C@H](Cc1ccc(O)cc1)NC(=O)[C@H](CC(=O)O)NC(=O)[C@H](CO)NC(=O)[C@@H](NC(=O)[C@H](Cc1ccccc1)NC(=O)[C@@H](NC(=O)CNC(=O)[C@H](CCC(N)=O)NC(=O)[C@@H](CO)NC(=O)[C@@H](N)Cc1c[nH]cn1)[C@@H](C)O)[C@@H](C)O)C(=O)N[C@@H](CCCNC(=N)N)C(=O)N[C@@H](CCCNC(=N)N)C(=O)N[C@@H](C)C(=O)N[C@@H](CCC(N)=O)C(=O)N[C@@H](CC(=O)O)C(=O)N[C@@H](Cc1ccccc1)C(=O)N[C@H](C(=O)N[C@@H](CCC(N)=O)C(=O)N[C@@H](Cc1c[nH]c2ccccc12)C(=O)N[C@@H](CC(C)C)C(=O)N[C@@H](CC(C)C)C(=O)N[C@@H](CC(N)=O)C(=O)N[C@H](C(=O)NCC(=O)NCC(=O)N1CCC[C@H]1C(=O)N[C@@H](CO)C(=O)N[C@@H](CO)C(=O)NCC(=O)N[C@@H](C)C(=O)N1CCC[C@H]1C(=O)N1CCC[C@H]1C(=O)N1CCC[C@H]1C(=O)N[C@@H](CO)C(N)=O)[C@@H](C)O)C(C)C)C(=O)O,,,"Sprague-Dawley rat, female","subcutaneous, 20 µg/kg once daily, 14 days",,total bilirubin,0.9 ± 0.5 µmol/L
NC1CCN(C(=O)Oc2ccc(C3CCCC4(C3)OOC3(O4)C4CC5CC(C4)CC3C5)cc2)CC1 (racemic),,,"male ICR mice, plasma","oral, 50 mg/kg",,AUC(0-inf),6920 ng·h/mL
O=C(O)CCCOc1ccc(O)cc1-c1cc(-c2ccccc2C(F)(F)F)n(-c2ccccc2)n1,Salmonella typhimurium,Ames test,TA98,"concentration not given, with S9 metabolic activation",,growth-inhibiting concentration,5000 µg/plate
